# Results pooled from the literature.
# ± gives the spread as reported.
# Organism: Salmonella typhimurium
SMILES,assay,test system,setting,scale,quantity,value
COc1cccc(-c2n[nH]c(SCc3ccccn3)n2)c1OC,"Ames test, plate incorporation",TA100,"0.016 mg/plate, without S9",,revertant colonies per plate,106
OC(CCN1CC=C(c2ccc(F)cc2)CC1)c1ccc(F)c2ccccc12 (stereo not drawn),"genotoxicity, SOS/umu test",TA1535/pSK1002,"0.016 mg/mL, 4 h, without S9, lower range",,induction factor,0.9
N#C[C@@]1(n2ccc(N)nc2=O)O[C@H](CO)[C@@H](O)[C@H]1O,,TA100,"2.5 µM, without S9, unit not given",reference: control,viability,99.6
CC(=O)N1CCC(C(=O)N2CCN3C(=O)c4cc(-c5ccccc5)ccc4NC(=O)C3C2)CC1 (stereo not drawn),,TA1537,"158 µg/plate, together with: rat liver S9",,revertants per plate,15
CNC(=O)c1c(N(C)N=O)ncn1C,"mutagenicity, Ames plate incorporation",TA1537,"50 µg/plate, without S9, methanol",,revertant colonies per plate,13 ± 4
Cc1cc(C(=O)NC(C)(C)COc2cccc3c2C(N)=NS(=O)(=O)N3)cc(C)n1,"Ames test, initial",TA1535,"15.0 µg/plate, together with: rat liver S9",reference: solvent control,revertant ratio,1
CN(N=O)c1ccc(F)cc1,"mutagenicity, Ames plate incorporation",TA1535,"1500 µg/plate, 3 d, without S9, methanol",,revertant colonies per plate,19.3 ± 11
O=[N+]([O-])c1ccc(N2CCN(CCC(O)c3ccc(F)cc3)CC2)c(C(F)(F)F)c1 (stereo not drawn),SOS/umu test,TA1535/pSK1002,"0.004 mg/mL, 4 h, without S9, lower range",,survival,123%
COCCN(CCOC)N=O,"mutagenicity, Ames plate incorporation",TA98,"2500 µg/plate, 3 d, without S9, methanol",,revertant colonies per plate,23.7 ± 8
O=[N+]([O-])c1ccc(N2CCC(NCCC(O)c3ccc(F)c4ccccc34)CC2)c(C(F)(F)F)c1 (stereo not drawn),SOS/umu test,TA1535/pSK1002,"0.004 mg/mL, 4 h, with S9, lower range",,survival,107%
CC(C)N(C)N=O,"mutagenicity, Ames plate incorporation",TA98,"1500 µg/plate, 3 d, without S9, methanol",,revertant colonies per plate,25.7 ± 2
O=[N+]([O-])c1ccc(NC2CCNCC2)c(C(F)(F)F)c1,"genotoxicity, SOS/umu test",TA1535/pSK1002,"0.031 mg/mL, 4 h, without S9, full range",,induction factor,0.9
